# Experimental data pooled from the literature.
# A part holds a random share of what one study measured.

# Sample 1
# Target: Interferon regulatory factor 7, full length, phosphomimetic (IRF7, Homo sapiens, UniProt Q92985, residues 1-503, S471D/S472D/S475D/S476D/S477D/S483D/S484D/S487D)
# Method: protein-binding microarray
# Molecule type: double-stranded DNA, one strand shown
# Medium: in vitro
# Concentration: 2200 nM top
# Setting: 60-bp whole probe
# Together with: salmon DNA 0.4 mg/ml
# Baseline: random background probes
# Reading: higher = stronger binding
# Constant ends, left off below: GCCTAGCAC … GTCTTGATTCGCTTGACGCTGCTG
# Target sequence (chain): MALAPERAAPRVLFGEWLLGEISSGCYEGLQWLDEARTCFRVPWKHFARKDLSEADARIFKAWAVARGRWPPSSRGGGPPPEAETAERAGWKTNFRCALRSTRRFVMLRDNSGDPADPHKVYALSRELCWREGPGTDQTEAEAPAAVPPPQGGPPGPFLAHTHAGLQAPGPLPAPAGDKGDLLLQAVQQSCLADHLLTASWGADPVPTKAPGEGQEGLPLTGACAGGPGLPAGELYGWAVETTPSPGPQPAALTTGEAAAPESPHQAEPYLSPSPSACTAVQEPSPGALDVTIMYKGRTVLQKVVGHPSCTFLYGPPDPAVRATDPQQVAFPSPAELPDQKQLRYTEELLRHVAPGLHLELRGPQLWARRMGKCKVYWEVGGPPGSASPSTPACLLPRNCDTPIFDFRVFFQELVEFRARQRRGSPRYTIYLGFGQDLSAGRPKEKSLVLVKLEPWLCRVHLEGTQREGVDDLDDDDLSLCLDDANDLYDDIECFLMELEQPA
Sequence,fitted relative affinity
GACGGTCTCGGTATCGGCACGTGCTAG,0.266 z-score
TCATCTCCAGGGTTTCTCACTGTGCTA,1.03 z-score
TGTCATTTTCTCTTATTCTAGTGCTAG,2.71 z-score
GACGGTCTCGACACTGGGGACGTGCTA,-0.431 z-score
GACGGTATTGACTATCGGGACGTGCTA,-0.0145 z-score
GACGAACTGGGGTTTAGAGACGTGCTA,0.0518 z-score

# Sample 2
# Target: Histone acetyltransferase KAT6A, winged helix 1, GST fusion (KAT6A, Homo sapiens, UniProt Q92794, residues 1-85)
# Method: protein binding microarray
# Molecule type: double-stranded DNA, one strand shown
# Medium: in vitro
# Concentration: not given
# Setting: 8-mer, flanks averaged, mean of 2 arrays, mostly near background
# Baseline: not given
# Reading: higher = stronger binding
# Target sequence (chain): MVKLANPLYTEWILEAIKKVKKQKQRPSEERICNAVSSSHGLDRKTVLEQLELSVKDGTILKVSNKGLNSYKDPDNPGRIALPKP
Sequence,E-score
GTGATTAA,-0.114
GATCACGA,-0.13
AATATCGT,-0.131
CCGTTTAC,0.215
AACCCGCG,0.396
ACTCACTC,-0.0562
ACACCGCG,0.341
CGCGCTTA,0.356
ACTTGCAC,-0.191
AGCTAGCC,0.0367

# Sample 3
# Target: Centromere-binding protein 1, full length, His-tagged (CBF1, Saccharomyces cerevisiae, UniProt P17106, residues 1-351)
# Sequence of UniProt P17106 (whole entry, looked up): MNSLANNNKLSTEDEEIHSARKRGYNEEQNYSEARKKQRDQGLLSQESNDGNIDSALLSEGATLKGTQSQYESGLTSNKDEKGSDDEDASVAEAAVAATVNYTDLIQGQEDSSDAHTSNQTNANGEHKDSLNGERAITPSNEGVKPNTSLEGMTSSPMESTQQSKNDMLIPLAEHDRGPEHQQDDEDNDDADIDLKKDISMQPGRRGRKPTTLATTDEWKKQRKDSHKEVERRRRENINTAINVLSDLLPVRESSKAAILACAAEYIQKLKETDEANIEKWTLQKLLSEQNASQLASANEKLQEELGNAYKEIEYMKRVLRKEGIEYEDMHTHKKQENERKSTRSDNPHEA
# Method: competition protein-binding microarray
# Molecule type: double-stranded DNA, one strand shown
# Medium: in vitro
# Concentration: 2 µM
# Setting: whole 60-bp probe, lowest competitor level
# Together with: Pho4 competitor, 0.05 µM
# Reading: higher = stronger binding
# Constant ends, left off below: … GTCTTGATTCGCTTGACGCTGCTG
Sequence,fluorescence intensity [a.u.]
CGGGGTTAAGTTTGCTTAGTGGGTGGCTTGCAGCAG,82
CAAACGTCTGTTTGCCACGGGCATCGCAAATCTTAC,70.9
CGGGGTTAAGTTTGAGATGTGGGTGGCTTGCAGCAG,66.5
ATCTTATTAATTCATGGAAGGCATTGAACTCAACAG,74
ATCGTTCAATTTATCTTCGGCATTTTTCTGAATTTT,82.7
AACCCCCAAAGTTGTCATGTTAAGGAGGGCATTTTT,85.9
TTGAGTTTCCCTCACTTCGTGATGGGCGTTAACGTC,78.5
GGTGTAACATTCAGATGCGTGCGATATTTATTCTCT,85.9
CATACCCCTCAGTTCCACGGGGTAAAAAAAAAACTT,115
GTATTGGATAGCCATCACGTTGTCGAACATCCGGCT,379

# Single results of other studies
Substance,target,test,test system,setting,how to read,quantity,result
"PhoQ, residues 284 288 289 292 302 303 SLKLQV","PhoP, residues 12 14 15 18 19 AYFRS (Escherichia coli, UniProt P23836)","Sort-seq, measured: YFP reporter",E. coli,"PhoQ-PhoP variant library, together with: 10 µM Mg2+","baseline: high Mg2+ state, higher = stronger signaling",fold induction,6.14

# Some of these lines once more (sample 2):
Sequence,E-score
GATCACGA,-0.13
AATATCGT,-0.131
